Measured values of several laboratories.
Lines come from different studies, so protocols differ.
Matrix protein 2: Matrix protein 2 (Influenza A virus, UniProt P0DOF5)
Sequence of UniProt P0DOF5 (whole entry, looked up): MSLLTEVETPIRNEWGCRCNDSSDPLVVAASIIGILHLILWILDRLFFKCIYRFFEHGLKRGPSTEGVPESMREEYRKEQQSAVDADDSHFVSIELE
lasR: Transcriptional activator protein LasR (lasR, Pseudomonas aeruginosa, UniProt P25084)
Sequence of UniProt P25084 (whole entry, looked up): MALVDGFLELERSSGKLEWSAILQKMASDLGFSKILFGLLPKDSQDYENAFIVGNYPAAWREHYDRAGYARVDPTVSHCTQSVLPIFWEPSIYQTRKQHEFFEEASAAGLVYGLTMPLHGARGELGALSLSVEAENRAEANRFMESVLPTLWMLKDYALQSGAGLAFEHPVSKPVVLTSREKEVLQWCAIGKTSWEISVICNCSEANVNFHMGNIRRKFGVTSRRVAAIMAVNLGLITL
Response regulator PhoP: Response regulator PhoP (Mycobacterium tuberculosis, UniProt P71814)
Rv1885c: Secreted chorismate mutase (Rv1885c, Mycobacterium tuberculosis, UniProt P9WIB9)
Sequence of UniProt P9WIB9 (whole entry, looked up): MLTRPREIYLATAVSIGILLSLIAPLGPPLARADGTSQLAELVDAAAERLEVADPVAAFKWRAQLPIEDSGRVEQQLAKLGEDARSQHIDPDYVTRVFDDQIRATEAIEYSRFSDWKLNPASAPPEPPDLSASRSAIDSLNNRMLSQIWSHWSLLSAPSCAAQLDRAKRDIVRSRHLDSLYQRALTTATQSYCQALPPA
Sequence of UniProt P9WGM7 (whole entry, looked up): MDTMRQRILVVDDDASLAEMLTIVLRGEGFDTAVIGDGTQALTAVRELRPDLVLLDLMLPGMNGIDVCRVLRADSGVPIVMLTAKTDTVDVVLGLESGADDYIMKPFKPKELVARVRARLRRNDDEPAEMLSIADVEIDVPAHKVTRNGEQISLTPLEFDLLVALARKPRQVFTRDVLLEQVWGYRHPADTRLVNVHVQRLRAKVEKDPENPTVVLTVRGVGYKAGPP
Sequence of UniProt P27487 (whole entry, looked up): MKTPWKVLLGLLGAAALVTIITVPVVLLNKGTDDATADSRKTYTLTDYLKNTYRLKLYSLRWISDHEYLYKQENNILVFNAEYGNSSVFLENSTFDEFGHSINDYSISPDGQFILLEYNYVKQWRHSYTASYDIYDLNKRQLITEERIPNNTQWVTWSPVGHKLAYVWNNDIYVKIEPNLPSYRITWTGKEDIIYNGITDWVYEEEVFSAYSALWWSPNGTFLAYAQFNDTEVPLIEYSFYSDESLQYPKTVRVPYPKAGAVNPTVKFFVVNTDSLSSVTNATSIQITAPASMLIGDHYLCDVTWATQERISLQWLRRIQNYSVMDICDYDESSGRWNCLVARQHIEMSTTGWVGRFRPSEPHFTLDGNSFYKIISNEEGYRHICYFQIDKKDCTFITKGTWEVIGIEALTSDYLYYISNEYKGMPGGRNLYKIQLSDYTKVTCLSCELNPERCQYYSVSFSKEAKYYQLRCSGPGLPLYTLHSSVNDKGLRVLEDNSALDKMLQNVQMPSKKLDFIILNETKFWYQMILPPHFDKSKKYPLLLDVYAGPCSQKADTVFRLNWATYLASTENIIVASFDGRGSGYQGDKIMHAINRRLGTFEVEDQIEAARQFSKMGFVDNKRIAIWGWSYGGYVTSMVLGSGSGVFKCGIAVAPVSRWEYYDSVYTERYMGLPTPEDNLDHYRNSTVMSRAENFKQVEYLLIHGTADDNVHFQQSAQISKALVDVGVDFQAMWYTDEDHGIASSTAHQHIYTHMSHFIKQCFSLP
Sequence of UniProt P22310 (whole entry, looked up): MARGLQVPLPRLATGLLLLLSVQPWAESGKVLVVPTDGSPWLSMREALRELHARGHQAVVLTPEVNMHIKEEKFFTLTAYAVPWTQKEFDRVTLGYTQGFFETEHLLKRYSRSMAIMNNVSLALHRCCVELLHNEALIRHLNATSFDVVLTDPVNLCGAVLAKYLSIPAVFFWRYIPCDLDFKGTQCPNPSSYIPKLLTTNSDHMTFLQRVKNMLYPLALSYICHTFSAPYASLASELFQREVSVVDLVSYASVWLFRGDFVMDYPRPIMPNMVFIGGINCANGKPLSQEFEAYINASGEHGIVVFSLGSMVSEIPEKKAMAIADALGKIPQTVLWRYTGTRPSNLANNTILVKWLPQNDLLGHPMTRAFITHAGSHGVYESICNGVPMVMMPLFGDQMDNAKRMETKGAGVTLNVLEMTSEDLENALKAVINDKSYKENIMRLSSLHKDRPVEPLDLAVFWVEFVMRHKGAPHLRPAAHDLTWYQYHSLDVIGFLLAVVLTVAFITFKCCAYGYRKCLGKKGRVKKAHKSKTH
Sequence of UniProt P9WNS3 (whole entry, looked up): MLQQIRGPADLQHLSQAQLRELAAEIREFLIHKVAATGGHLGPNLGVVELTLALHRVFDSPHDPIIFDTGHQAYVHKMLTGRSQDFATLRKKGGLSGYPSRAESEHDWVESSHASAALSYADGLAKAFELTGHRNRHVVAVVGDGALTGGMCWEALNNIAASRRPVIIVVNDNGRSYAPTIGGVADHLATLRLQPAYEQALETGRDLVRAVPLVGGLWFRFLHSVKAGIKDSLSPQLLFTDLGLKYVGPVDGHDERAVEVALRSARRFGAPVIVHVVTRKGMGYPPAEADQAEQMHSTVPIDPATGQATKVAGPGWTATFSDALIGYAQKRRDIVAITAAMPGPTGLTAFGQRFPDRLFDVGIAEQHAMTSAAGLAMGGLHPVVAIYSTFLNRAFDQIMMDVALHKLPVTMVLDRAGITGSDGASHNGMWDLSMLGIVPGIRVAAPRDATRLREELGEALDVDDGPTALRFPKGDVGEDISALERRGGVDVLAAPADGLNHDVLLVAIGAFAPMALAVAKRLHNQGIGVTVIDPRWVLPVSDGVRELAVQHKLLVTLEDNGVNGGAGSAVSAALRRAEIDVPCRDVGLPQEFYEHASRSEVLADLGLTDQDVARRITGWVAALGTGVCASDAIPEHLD
Sequence of UniProt P68400 (whole entry, looked up): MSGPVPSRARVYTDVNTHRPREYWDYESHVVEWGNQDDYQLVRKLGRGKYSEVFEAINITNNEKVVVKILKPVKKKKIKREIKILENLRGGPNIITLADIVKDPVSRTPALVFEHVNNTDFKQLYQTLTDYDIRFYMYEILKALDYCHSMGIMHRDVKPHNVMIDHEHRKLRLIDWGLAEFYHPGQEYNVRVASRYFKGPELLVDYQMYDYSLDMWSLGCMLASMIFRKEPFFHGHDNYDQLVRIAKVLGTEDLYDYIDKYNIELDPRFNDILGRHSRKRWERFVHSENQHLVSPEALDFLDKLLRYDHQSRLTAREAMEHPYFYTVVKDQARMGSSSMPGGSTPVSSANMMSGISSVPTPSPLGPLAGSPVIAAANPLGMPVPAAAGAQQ

Nc1ncc(CNC23CC4CC(CC(C4)C2)C3)s1  inhibition (Matrix protein 2; ion current, inhibitor, TEVC; Xenopus laevis oocytes; 100 µM, 2 min, wild type): inactive
O=C1c2ccccc2-c2c1c1c(O)cccc1n2Cc1ccccc1  inhibition (Casein kinase II subunit alpha, with CK2 beta subunit (CSNK2A1, Homo sapiens, UniProt P68400); 10 µM): 20%
Cc1cc(CNC23CC4CC(CC(C4)C2)C3)sc1Br  inhibition (Matrix protein 2; ion current, two-electrode voltage clamp; 100 µM): 52%
CC(=N)N1CC23C4C5CC5C5C4C4C2C2CC2C4C53C1 (stereo not drawn)  inhibition (Matrix protein 2; enzyme activity, inhibitor; 100 µM, pH 5.5): 20%
O=C(N/N=C/c1ncc[nH]1)c1cccs1  inhibition (1-deoxy-D-xylulose-5-phosphate synthase (Mycobacterium tuberculosis, UniProt P9WNS3); enzyme activity, inhibitor; 120 µM): 16%
CCCc1cn(-c2cccc(C(=O)N[C@H]3CCOC3=O)c2)nn1  inhibition (lasR; reporter gene, antagonist; 100 µM, together with: OdDHL 10 nM): 29%
COc1ccc(CNC23CC4CC(CC(C4)C2)C3)s1  inhibition (Matrix protein 2; ion current, two-electrode voltage clamp; 100 µM): 86%
CCCCCc1cc(O)c2c(c1)OC(C)(C)C1CCC(C)=CC21 (single isomer, unassigned; (-))  inhibition (UGT1A4 (Homo sapiens, UniProt P22310); trifluoperazine glucuronidation; recombinant microsomes; 10 or 100 µM, together with: trifluoperazine): no inhibition
O=S(=O)(O)c1ccc(-c2cnc(-c3ccc(-c4ncc(-c5ccc(S(=O)(=O)O)cc5)o4)cc3)o2)cc1  inhibition (Response regulator PhoP; DNA binding; 100 µM): > 50%
CCCCCc1cc(O)c2c(c1)OC(C)(C)[C@@H]1CCC(C)=C[C@@H]21  inhibition (DPP4 (Homo sapiens, UniProt P27487); enzyme activity, inhibitor, absorbance; 40 µg/mL): 21.6%
O=S(=O)(O)CC1CSSCC(CS(=O)(=O)O)SS1 (stereo not drawn)  inhibition (Response regulator PhoP; DNA binding; 100 µM): > 50%
CCCc1cn(-c2ccc(C(=O)N[C@H]3CCOC3=O)cc2)nn1  inhibition (lasR; reporter gene, antagonist; 10 µM, together with: OdDHL 10 nM): 12%
CN1CC23C4C5CC5C5C4C4C2C2CC2C4C53C1 (stereo not drawn)  inhibition (Matrix protein 2; enzyme activity, inhibitor; 100 µM, pH 5.5): 27%
Ic1ccc(CNC23CC4CC(CC(C4)C2)C3)s1  inhibition (Matrix protein 2; ion current, two-electrode voltage clamp; 100 µM): 91%
Cc1ccc(S(=O)(=O)n2c(CN3C(=O)C(=O)c4ccccc43)cc3ccccc32)cc1  inhibition (Rv1885c; enzyme activity, inhibitor; 30 µM): 67.7%
c1cc(C2CC2)sc1CNC12CC3CC(CC(C3)C1)C2  inhibition (Matrix protein 2; ion current, two-electrode voltage clamp; 100 µM): 7%
O=S(=O)(O)CCOCC1CSSCC(COCCS(=O)(=O)O)SS1 (stereo not drawn)  inhibition (DNA-binding response regulator MtrA, C-terminal domain (mtrA, Mycobacterium tuberculosis, UniProt P9WGM7); DNA binding; 100 µM): > 50%
Cc1ccc(S(=O)(=O)n2c(CN3C(=O)C(=O)c4ccccc43)cc3cc(C)cc(C)c32)cc1  inhibition (Rv1885c; enzyme activity, inhibitor; 30 µM): 71.6%

A few entries again:
Cc1ccc(S(=O)(=O)n2c(CN3C(=O)C(=O)c4ccccc43)cc3ccccc32)cc1  inhibition (Rv1885c; enzyme activity, inhibitor; 30 µM): 67.7%
CCCc1cn(-c2ccc(C(=O)N[C@H]3CCOC3=O)cc2)nn1  inhibition (lasR; reporter gene, antagonist; 10 µM, together with: OdDHL 10 nM): 12%
